Experimental data of several laboratories.
A part holds a random share of what one study measured.
Chain of UniProt P10721 (whole entry, unmodified, looked up): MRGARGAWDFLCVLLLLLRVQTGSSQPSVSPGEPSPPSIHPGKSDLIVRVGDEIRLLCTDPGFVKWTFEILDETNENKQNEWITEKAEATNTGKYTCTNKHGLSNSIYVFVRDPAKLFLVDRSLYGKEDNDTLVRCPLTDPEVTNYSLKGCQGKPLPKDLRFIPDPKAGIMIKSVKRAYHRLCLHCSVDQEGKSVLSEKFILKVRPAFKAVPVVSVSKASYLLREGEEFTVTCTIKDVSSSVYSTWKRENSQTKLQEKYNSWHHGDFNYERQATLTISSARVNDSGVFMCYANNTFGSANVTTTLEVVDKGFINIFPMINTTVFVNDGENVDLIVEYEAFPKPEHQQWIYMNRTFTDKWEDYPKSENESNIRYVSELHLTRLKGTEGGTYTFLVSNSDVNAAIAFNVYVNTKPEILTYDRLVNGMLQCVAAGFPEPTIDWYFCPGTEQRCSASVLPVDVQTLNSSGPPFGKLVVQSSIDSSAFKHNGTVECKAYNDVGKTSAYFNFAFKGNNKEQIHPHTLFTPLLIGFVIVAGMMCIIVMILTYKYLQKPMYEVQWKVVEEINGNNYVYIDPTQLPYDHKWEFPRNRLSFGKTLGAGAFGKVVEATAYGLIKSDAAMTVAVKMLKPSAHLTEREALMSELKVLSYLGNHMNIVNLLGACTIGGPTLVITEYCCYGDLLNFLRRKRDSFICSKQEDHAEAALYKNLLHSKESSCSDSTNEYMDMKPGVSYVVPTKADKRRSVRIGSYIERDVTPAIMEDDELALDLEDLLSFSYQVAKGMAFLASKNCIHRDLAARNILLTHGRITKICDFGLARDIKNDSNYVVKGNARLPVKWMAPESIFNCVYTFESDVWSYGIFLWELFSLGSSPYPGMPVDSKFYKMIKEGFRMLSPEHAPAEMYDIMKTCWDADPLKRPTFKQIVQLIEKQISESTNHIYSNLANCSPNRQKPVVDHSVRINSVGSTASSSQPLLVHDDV
Chain of UniProt Q8N568 (whole entry, looked up): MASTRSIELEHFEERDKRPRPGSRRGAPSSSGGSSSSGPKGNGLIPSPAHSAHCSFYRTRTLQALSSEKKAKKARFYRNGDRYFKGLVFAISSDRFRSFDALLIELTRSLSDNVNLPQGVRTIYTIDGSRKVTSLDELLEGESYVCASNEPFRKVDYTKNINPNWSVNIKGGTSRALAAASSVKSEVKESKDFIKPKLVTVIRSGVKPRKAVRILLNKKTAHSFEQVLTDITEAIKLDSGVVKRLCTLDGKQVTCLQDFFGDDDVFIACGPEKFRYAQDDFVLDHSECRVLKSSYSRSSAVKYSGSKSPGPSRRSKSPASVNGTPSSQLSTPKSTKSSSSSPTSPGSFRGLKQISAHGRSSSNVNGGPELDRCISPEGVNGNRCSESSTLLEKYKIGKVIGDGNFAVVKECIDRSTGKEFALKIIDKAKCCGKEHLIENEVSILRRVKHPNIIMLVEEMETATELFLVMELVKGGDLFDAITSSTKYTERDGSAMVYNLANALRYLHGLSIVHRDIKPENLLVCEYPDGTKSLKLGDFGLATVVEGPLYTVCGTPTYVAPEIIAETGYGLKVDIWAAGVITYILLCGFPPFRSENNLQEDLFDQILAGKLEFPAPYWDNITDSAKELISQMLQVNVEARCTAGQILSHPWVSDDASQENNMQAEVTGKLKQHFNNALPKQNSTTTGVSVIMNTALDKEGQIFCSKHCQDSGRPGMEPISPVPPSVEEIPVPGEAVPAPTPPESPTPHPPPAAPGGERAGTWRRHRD
Chain of UniProt P35968 (whole entry, looked up): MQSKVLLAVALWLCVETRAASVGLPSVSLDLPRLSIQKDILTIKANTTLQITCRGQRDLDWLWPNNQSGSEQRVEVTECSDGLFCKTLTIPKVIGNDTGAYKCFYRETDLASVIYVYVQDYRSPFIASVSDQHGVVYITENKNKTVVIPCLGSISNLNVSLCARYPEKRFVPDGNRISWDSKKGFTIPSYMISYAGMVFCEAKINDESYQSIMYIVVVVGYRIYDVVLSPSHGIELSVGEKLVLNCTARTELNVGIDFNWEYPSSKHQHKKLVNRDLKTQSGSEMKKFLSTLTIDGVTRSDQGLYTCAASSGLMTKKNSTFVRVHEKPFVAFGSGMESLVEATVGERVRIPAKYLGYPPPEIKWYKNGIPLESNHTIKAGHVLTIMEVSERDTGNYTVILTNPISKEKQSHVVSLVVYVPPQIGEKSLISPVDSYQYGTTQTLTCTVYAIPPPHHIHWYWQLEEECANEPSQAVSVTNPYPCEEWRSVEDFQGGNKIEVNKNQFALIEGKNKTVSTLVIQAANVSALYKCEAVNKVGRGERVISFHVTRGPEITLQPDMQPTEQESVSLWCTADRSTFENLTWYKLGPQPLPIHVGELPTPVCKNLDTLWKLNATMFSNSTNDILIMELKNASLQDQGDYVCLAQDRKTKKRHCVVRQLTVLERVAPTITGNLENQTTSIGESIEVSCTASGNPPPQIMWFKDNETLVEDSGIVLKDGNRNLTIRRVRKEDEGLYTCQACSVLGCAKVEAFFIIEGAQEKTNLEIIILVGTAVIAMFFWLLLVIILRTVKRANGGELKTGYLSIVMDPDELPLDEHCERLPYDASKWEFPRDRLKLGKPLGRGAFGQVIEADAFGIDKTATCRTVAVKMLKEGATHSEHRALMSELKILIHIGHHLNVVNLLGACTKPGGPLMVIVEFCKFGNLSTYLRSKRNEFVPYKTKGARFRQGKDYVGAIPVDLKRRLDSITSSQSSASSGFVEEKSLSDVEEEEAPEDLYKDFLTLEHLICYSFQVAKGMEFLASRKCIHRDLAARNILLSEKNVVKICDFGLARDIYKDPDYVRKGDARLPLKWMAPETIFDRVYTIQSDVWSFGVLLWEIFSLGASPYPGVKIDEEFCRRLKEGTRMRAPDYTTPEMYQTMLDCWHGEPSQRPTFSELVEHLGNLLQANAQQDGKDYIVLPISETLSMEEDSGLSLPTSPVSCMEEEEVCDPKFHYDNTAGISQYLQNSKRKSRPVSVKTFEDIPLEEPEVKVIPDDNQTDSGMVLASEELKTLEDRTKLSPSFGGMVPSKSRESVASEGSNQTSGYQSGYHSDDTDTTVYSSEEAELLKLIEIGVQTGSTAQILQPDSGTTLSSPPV
Chain of UniProt Q7KZI7 (whole entry, looked up): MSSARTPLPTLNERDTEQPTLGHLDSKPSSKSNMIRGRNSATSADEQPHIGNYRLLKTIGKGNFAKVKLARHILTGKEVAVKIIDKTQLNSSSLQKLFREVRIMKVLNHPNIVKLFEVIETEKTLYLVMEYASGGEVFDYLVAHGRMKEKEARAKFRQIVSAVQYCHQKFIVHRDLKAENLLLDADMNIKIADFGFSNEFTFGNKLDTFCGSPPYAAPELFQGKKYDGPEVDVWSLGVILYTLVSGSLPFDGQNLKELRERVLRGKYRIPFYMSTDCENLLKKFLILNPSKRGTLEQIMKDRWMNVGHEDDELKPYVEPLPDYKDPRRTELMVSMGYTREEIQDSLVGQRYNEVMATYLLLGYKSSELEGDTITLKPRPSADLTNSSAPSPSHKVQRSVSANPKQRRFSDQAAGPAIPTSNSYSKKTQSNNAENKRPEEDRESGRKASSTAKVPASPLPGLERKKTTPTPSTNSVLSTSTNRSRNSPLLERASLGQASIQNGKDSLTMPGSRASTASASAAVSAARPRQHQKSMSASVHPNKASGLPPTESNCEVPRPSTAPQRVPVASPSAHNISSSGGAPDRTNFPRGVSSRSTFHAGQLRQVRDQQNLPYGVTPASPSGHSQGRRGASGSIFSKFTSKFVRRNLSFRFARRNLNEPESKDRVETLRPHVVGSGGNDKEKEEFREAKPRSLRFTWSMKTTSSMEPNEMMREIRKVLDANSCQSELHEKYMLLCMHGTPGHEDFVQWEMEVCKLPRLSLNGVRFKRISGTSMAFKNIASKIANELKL

Sample 1
Target: Synaptic vesicular amine transporter (SLC18A2, Homo sapiens, UniProt Q05940)
Chain of UniProt Q05940 (whole entry, looked up): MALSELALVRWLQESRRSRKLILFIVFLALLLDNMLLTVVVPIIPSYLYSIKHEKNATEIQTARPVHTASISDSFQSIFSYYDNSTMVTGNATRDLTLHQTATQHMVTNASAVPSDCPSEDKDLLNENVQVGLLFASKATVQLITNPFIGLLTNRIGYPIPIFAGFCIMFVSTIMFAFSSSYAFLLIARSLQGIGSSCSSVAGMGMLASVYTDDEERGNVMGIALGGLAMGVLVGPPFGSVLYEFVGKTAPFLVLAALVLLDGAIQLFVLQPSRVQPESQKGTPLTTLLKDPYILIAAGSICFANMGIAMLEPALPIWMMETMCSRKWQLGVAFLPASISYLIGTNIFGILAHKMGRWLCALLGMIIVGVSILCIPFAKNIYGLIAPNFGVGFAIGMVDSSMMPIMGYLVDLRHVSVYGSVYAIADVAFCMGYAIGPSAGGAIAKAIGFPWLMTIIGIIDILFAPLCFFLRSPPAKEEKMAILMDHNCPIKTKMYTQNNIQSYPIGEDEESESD
Effect on: transporter uptake
Mode: inhibitor
Technique: radiometric
Setting: cell membranes
`COc1cc2nc(N3CCN(C(=O)C4COc5ccccc5O4)CC3)nc(N)c2cc1OC` (stereo not shown) has an IC50 of 8 nM.
With `COc1cc2c(Nc3ccc(Br)cc3F)ncnc2cc1OCC1CCN(C)CC1` the IC50 was 514 nM.
`CN1CCN(c2ccc(C(=O)Nc3n[nH]c4ccc(Cc5cc(F)cc(F)c5)cc34)c(NC3CCOCC3)c2)CC1` gave an IC50 of 670 nM.
`COc1cc(C(C)=O)ccc1OCCCN1CCC(c2noc3cc(F)ccc23)CC1` gave an IC50 of 186 nM.
`CCCN(CCc1cccs1)[C@H]1CCc2c(O)cccc2C1` gave an IC50 of 850 nM.
The IC50 of `CN(C)C(=O)N[C@H]1CC[C@H](CCN2CCN(c3cccc(Cl)c3Cl)CC2)CC1` is reported as 845 nM.
With `CC(C)(Cc1ccccc1)NCC(O)c1ccc(O)c(NS(C)(=O)=O)c1` (stereo not shown) the IC50 was 600 nM.
For `CN1CCN2c3c(cccc31)[C@@H]1CN(CCCC(=O)c3ccc(F)cc3)CC[C@@H]12`, the IC50 was 62 nM.

Sample 2
Structure (SMILES): O=C1NC(=O)c2c1c1c3ccccc3[nH]c1c1[nH]c3cc(Br)ccc3c21
Effect on: enzyme activity
Mode: inhibitor
Tested at: 0.5 µM
Baseline: control
For Vascular endothelial growth factor receptor 2 (KDR, Homo sapiens, UniProt P35968): remaining activity read 67.9%.
G protein-coupled receptor kinase 4 (GRK4, Homo sapiens, UniProt P32298) — remaining activity: 99.8%.
It gave 76.6% for remaining activity (Hepatocyte growth factor receptor (MET, Homo sapiens, UniProt P08581)).
Misshapen-like kinase 1 (MINK1, Homo sapiens, UniProt Q8N4C8) — remaining activity: 52.2%.
The remaining activity was 38.7% (MAP/microtubule affinity-regulating kinase 4 (MARK4, Homo sapiens, UniProt Q96L34)).
For Dual specificity protein kinase CLK3 (CLK3, Homo sapiens, UniProt P49761): remaining activity read 93.4%.
Mitogen-activated protein kinase 14 (MAPK14, Homo sapiens, UniProt Q16539) — remaining activity: 90.6%.
For Discoidin domain-containing receptor 2 (DDR2, Homo sapiens, UniProt Q16832): remaining activity read 91.8%.
For Serine/threonine-protein kinase DCLK2 (DCLK2, Homo sapiens, UniProt Q8N568): remaining activity read 87.2%.
Serine/threonine-protein kinase MARK2 (MARK2, Homo sapiens, UniProt Q7KZI7) — remaining activity: 40.4%.
It gave 92.4% for remaining activity (Mitogen-activated protein kinase 1 (MAPK1, Homo sapiens, UniProt P28482)).
It gave 84.1% for remaining activity (Serine/threonine-protein kinase MRCK beta (CDC42BPB, Homo sapiens, UniProt Q9Y5S2)).
Calcium/calmodulin-dependent protein kinase type IV (CAMK4, Homo sapiens, UniProt Q16566) — remaining activity: 96.2%.

Sample 3
SMILES: Cn1nc(C(F)(F)F)cc1-c1cnc(N2CCc3cc(S(=O)(=O)Nc4c(F)cc(Cl)cc4F)cc(N4CCCC4=O)c32)nc1
Effect on: cell-free assay
Technique: competition with immobilised ligand
Tested at: 1 µM
It gave 89% for remaining binding (Mast/stem cell growth factor receptor Kit (KIT, Homo sapiens, UniProt P10721, V559D/V654A)).
Mast/stem cell growth factor receptor Kit (KIT, Homo sapiens, UniProt P10721, L576P) — remaining binding: 93%.
For Epithelial discoidin domain-containing receptor 1 (DDR1, Homo sapiens, UniProt Q08345): remaining binding read 100%.
The remaining binding was 98% (Serine/threonine-protein kinase NLK (NLK, Homo sapiens, UniProt Q9UBE8)).
The remaining binding was 92% (Tyrosine-protein kinase ABL1, phosphorylated (ABL1, Homo sapiens, UniProt P00519, M351T)).
RAC-alpha serine/threonine-protein kinase (AKT1, Homo sapiens, UniProt P31749) — remaining binding: 100%.
For Serine/threonine-protein kinase PAK 2 (PAK2, Homo sapiens, UniProt Q13177): remaining binding read 100%.

Sample 4
Target: Beta-1 adrenergic receptor (ADRB1, Homo sapiens, UniProt P08588)
Chain of UniProt P08588 (whole entry, looked up): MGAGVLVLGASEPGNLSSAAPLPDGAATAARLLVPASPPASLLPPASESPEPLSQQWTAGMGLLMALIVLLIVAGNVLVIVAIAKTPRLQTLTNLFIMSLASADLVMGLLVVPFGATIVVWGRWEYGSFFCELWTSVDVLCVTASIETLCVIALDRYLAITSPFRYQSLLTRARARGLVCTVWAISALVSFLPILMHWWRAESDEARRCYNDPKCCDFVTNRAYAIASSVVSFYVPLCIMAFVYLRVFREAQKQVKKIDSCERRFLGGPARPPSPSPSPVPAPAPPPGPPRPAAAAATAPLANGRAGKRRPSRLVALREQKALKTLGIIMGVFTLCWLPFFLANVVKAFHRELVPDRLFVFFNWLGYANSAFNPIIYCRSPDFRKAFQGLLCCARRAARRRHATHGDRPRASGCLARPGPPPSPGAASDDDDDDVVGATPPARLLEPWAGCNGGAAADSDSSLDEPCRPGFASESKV
Mode: antagonist
`COc1ccccc1N1CCN([C@H]2[C@@H]3OC[C@@H](O3)[C@@H](NCc3ccco3)[C@@H]2O)CC1` has an IC50 of at least 100000 nM.
With `COc1cc(OC)c2c(OC)c(-c3ccc4c(c3)OCO4)c(=O)oc2c1` the IC50 was at least 100000 nM.
`COc1ccccc1N1CCN([S+](=O)([O-])c2ccc(C)c(C)c2C)CC1` gave an IC50 of at least 100000 nM.
For `OC(c1ccccc1)c1cn(C2CCN(Cc3cnc4ccccc4c3)CC2)nn1` (stereo not shown), the IC50 was 15800 nM.
The IC50 of `Fc1ccc(-c2nnc3ccc(Nc4ccc(N5CCOCC5)cc4)nn23)nc1` is reported as at least 100000 nM.
With `Fc1ccc(-c2noc([C@@H]3Cc4[nH]cnc4CN3CCCc3ccccc3)n2)cc1Cl` the IC50 was at least 100000 nM.
With `CN(c1ccccc1)c1cc(=O)c2ccnc(Nc3cccnc3)c2o1` the IC50 was at least 100000 nM.
`Cc1noc2c(-c3ccc(N4CCOCC4)cc3)cc(-c3cccnc3)nc12` has an IC50 of 25100 nM.
`O=C(c1cc(-c2ccccc2)nc2ccccc12)N1CCc2c(nc[nH]c2=O)C1` has an IC50 of at least 100000 nM.
